Measurements gathered from unrelated publications.
Every numbered part comes from another study and shows a few of its results, in no order. Several values in a cell are separate wells, animals, samples, runs or records.
Chain of UniProt P48729 (whole entry, looked up): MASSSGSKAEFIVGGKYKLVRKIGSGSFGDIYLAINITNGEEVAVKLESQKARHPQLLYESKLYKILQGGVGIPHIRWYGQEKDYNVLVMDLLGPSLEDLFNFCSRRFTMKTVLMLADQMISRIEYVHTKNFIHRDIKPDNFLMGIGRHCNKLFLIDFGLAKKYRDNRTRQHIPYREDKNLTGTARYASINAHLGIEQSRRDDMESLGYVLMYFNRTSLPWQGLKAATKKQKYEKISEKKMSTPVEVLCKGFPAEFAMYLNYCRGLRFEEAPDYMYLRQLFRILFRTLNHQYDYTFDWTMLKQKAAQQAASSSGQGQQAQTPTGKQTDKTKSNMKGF
Chain of UniProt Q13976 (whole entry, looked up): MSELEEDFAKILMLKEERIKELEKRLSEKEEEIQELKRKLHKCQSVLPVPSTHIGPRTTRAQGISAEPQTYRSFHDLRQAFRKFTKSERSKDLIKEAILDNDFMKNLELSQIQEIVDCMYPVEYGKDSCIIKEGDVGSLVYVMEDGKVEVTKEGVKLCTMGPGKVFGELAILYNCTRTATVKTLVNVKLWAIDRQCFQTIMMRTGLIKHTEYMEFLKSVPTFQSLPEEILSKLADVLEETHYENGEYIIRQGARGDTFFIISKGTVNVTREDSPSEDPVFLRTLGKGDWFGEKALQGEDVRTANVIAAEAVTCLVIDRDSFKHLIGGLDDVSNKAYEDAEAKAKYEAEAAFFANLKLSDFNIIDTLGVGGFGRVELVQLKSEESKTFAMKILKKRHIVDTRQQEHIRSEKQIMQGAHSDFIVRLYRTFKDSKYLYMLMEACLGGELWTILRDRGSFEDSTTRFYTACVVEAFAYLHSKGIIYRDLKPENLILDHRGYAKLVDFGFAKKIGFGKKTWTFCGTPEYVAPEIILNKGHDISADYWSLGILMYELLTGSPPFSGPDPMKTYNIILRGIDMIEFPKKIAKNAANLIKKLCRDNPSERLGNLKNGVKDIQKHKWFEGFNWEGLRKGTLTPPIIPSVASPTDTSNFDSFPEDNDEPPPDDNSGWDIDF
Chain of UniProt P53778 (whole entry, looked up): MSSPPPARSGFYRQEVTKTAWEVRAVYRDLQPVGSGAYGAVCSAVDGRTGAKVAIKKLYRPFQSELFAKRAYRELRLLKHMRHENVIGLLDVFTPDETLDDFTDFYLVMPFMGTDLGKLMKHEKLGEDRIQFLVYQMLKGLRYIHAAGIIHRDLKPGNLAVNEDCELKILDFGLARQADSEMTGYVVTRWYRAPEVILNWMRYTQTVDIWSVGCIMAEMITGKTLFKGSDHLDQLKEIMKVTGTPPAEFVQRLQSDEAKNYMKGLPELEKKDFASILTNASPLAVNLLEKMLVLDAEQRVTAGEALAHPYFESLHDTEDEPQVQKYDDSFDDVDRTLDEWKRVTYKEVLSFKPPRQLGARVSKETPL
Chain of UniProt P50750 (whole entry, looked up): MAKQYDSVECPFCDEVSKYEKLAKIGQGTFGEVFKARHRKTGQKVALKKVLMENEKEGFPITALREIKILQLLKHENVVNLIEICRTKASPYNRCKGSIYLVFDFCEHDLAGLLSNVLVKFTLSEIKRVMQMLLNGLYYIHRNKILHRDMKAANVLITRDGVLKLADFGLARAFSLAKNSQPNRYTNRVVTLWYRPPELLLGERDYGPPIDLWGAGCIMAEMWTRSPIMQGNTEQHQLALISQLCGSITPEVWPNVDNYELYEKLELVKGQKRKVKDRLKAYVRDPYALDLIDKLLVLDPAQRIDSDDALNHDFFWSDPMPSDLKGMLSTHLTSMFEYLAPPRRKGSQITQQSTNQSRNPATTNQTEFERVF
Chain of UniProt Q9Y3S1 (whole entry, looked up): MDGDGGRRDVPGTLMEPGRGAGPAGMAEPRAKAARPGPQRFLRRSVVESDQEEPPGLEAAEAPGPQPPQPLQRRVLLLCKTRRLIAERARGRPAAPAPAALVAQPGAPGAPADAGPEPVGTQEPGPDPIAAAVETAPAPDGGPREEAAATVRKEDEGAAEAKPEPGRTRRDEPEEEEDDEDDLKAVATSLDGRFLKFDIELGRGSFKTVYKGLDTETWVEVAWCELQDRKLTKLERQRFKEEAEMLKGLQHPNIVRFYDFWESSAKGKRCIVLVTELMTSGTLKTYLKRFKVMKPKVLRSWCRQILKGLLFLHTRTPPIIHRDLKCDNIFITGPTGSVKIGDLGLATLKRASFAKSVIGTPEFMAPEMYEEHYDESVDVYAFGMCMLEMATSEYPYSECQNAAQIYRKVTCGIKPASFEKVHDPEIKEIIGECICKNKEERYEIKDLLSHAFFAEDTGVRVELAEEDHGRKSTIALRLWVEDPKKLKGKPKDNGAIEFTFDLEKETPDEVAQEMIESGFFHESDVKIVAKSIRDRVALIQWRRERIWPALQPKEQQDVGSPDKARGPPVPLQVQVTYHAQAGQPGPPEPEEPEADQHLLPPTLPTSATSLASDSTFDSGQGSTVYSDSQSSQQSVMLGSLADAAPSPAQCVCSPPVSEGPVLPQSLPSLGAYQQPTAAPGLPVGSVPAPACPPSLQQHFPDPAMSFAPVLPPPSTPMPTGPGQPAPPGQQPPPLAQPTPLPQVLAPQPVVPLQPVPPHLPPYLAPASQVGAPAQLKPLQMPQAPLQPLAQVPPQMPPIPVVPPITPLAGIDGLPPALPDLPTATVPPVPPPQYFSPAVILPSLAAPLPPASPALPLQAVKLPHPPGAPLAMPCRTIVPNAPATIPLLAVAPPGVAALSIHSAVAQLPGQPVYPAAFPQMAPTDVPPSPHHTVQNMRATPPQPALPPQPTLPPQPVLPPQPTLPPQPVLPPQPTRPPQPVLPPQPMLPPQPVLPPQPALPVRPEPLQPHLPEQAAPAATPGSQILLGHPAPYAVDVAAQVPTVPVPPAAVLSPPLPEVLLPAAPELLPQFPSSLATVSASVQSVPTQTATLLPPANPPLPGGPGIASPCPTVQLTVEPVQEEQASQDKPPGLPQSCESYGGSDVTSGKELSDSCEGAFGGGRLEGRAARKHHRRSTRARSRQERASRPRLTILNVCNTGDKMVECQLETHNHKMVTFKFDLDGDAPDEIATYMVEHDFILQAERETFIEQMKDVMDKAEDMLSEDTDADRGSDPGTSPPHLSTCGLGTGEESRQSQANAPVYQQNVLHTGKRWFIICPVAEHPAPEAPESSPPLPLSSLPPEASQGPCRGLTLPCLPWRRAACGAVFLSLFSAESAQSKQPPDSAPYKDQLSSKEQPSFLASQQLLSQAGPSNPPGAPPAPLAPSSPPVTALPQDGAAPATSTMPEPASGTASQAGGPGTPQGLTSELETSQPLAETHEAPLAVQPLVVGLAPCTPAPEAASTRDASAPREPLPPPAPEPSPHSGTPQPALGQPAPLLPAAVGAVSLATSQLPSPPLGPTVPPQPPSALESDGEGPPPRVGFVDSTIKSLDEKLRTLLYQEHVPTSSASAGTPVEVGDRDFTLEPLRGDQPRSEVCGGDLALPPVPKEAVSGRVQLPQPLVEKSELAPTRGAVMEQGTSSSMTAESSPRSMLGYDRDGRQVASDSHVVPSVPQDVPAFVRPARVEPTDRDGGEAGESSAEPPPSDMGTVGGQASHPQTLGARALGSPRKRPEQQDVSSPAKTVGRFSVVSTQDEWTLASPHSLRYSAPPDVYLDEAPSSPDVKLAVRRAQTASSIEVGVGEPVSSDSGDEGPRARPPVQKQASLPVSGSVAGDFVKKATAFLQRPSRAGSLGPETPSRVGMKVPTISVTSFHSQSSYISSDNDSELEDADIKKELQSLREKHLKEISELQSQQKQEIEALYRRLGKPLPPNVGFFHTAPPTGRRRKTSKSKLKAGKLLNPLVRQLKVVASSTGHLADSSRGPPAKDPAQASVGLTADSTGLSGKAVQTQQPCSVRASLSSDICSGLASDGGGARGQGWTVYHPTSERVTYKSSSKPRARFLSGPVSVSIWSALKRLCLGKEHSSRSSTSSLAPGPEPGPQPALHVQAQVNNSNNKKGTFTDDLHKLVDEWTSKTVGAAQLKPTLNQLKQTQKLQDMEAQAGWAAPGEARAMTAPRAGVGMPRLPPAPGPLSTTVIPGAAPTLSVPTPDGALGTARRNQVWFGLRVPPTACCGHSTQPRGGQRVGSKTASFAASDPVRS
Chain of UniProt P68400 (whole entry, looked up): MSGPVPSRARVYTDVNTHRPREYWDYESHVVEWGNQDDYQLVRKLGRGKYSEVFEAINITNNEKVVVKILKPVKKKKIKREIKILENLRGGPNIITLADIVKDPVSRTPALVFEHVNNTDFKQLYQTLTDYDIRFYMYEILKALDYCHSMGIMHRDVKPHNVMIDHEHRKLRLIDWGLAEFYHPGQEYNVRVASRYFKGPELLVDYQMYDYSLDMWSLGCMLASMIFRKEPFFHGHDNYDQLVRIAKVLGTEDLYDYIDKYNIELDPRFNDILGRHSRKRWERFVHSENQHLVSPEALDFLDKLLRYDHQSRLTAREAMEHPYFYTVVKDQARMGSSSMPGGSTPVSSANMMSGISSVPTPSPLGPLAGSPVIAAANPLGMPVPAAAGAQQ

Block 1
Target: Histamine H3 receptor (HRH3, Homo sapiens, UniProt Q9Y5N1)
Chain of UniProt Q9Y5N1 (whole entry, looked up): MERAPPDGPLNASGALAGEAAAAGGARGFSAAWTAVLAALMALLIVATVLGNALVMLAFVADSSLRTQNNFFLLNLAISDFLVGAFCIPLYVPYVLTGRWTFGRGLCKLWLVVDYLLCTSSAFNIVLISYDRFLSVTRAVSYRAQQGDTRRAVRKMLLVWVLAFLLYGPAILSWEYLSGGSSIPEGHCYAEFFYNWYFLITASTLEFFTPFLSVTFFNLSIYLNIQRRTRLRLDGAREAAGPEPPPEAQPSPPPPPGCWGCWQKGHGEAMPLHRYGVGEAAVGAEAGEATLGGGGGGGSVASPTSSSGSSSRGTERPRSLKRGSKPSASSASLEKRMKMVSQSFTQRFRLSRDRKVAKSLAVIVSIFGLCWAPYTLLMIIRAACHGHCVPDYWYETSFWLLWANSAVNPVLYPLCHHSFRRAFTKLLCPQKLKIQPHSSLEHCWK
Observed: ligand displacement
Tested at: 10 µM
Measurement: inhibition
CN(C)CC#Cc1ccc(OCCCc2sc(N3CCc4cccc(C(=O)Nc5nc6ccccc6s5)c4C3)nc2C(=O)O)c(F)c1: 53.3%
O=S(=O)(NC1CCC(c2cc(F)ccc2F)(S(=O)(=O)c2ccc(Cl)cc2)CC1)C(F)(F)F (stereo not shown): 14.2%
COc1cccc(NC(=O)c2nc3scc(CN(C)Cc4ccccc4)c3c(=O)[nH]2)c1: 6.01%
O=C(Nc1ccc(Oc2ccc(F)cc2)cc1)N1CCc2ncccc2[C@H]1c1ccc(F)cc1: 3.57%
c1ccc(N2CCN(Cc3nc4ccccc4[nH]3)CC2)nc1: 6.03%
Cc1cc(Nc2nccc(C)n2)cc(-c2cnc([C@@]3(O)CC[C@H](C(=O)O)C(C)(C)C3)s2)c1: 50.4%
Nc1nc(NCc2ccccc2)nc(-c2ccccc2CO)n1: -1.93%
COCCOc1nc(-c2ccc(Cl)nc2)nc2c1CN(C(=O)c1ncn3ccccc13)CC2: 5.45%
CN(C)c1ncnc(-c2ccc3nc(Nc4cc(CN5CCN(C(=O)CC(F)(F)F)CC5)ccn4)[nH]c3c2)c1Cl: 4.68%
Cc1ccc(-c2cnc([C@@]3(O)CC[C@H](C(=O)O)C(C)(C)C3)s2)cc1Nc1cccc(C(F)(F)F)n1: 46.3%
O=C(N[C@H]1CCCCC/C=C\C2C[C@@]2(C(=O)O)NC(=O)[C@@H]2C[C@@H](Oc3ccncc3)CN2C1=O)OC1CCCC1 (stereo partly shown): 2.64%
Cc1c(NC(=O)c2cc(C(N)=O)nc3cc(F)ccc23)c(C(F)(F)F)nn1Cc1ccc(C#N)cc1: -15.3%
COc1ccc2cc(OCC3(C(=O)O)CN(C(=O)c4ccc(F)cc4)C3)ccc2c1: -15.3%

Block 2
SMILES: Fc1ccc(-c2nc3n(c2-c2ccncc2)CCS3)cc1
Observed: enzyme activity
Mode: inhibitor
Tested at: 0.5 µM
Reference: control
Measurement: remaining activity
WNK2 (Homo sapiens, UniProt Q9Y3S1): 104%
MAP2K6 (Homo sapiens, UniProt P52564): 104%
PRKCI (Homo sapiens, UniProt P41743): 90.9%
Cyclin-dependent kinase 9, with cyclin T1 (CDK9, Homo sapiens, UniProt P50750): 94.9%
MAP3K10 (Homo sapiens, UniProt Q02779): 101%
AKT3 (Homo sapiens, UniProt Q9Y243): 109%
MKNK2 (Homo sapiens, UniProt Q9HBH9): 84.9%
MAPK12 (Homo sapiens, UniProt P53778): 104%
PLK2 (Homo sapiens, UniProt Q9NYY3): 103%
PRKG1 (Homo sapiens, UniProt Q13976): 103%
KIT (Homo sapiens, UniProt P10721): 92.8%
CSNK1A1 (Homo sapiens, UniProt P48729): 58.8%
LYN (Homo sapiens, UniProt P07948): 97.4%
CSNK2A1 (Homo sapiens, UniProt P68400): 106%

Block 3
Organism: Plasmodium berghei
Cell line: Huh-7
Strain: liver stage
Tested at: 10 µM
Time: 24 h
Reference: control
Measurement: parasite load
O=C(O)c1ccccc1O: 107%
CC(C)NC[C@@H](O)COc1cccc2ccccc12: 94.8%
CCN(CC)CC#CCOC(=O)C(O)(c1ccccc1)C1CCCCC1 (stereo not shown): 90.5%
Clc1ccc(COC(Cn2ccnc2)c2ccc(Cl)cc2Cl)cc1 (stereo not shown): 49.7%
CCCCc1oc2ccccc2c1C(=O)c1cc(I)c(OCCN(CC)CC)c(I)c1: 18.8%
CSc1ccc2c(c1)N(CCC1CCCCN1C)c1ccccc1S2 (stereo not shown): 45.1%

Other studies, line by line
O=C1CCC(N2Cc3cc(C4CCN(Cc5ccccc5)CC4)ccc3C2=O)C(=O)N1 (stereo not shown)
IL-2 level (Jurkat; 10 nM, 24 h, added: CD3/CD28 beads, 1:4): 126 pg/mL and 130 pg/mL and 132 pg/mL

Excerpt of the above (block 2):
PLK2 (Homo sapiens, UniProt Q9NYY3): 103%
MAPK12 (Homo sapiens, UniProt P53778): 104%
KIT (Homo sapiens, UniProt P10721): 92.8%
PRKG1 (Homo sapiens, UniProt Q13976): 103%
WNK2 (Homo sapiens, UniProt Q9Y3S1): 104%
MKNK2 (Homo sapiens, UniProt Q9HBH9): 84.9%
